# Published values of several laboratories.
# Every numbered part comes from another study and shows a few of its results, in no order.
# Chain of UniProt Q12866 (whole entry, looked up): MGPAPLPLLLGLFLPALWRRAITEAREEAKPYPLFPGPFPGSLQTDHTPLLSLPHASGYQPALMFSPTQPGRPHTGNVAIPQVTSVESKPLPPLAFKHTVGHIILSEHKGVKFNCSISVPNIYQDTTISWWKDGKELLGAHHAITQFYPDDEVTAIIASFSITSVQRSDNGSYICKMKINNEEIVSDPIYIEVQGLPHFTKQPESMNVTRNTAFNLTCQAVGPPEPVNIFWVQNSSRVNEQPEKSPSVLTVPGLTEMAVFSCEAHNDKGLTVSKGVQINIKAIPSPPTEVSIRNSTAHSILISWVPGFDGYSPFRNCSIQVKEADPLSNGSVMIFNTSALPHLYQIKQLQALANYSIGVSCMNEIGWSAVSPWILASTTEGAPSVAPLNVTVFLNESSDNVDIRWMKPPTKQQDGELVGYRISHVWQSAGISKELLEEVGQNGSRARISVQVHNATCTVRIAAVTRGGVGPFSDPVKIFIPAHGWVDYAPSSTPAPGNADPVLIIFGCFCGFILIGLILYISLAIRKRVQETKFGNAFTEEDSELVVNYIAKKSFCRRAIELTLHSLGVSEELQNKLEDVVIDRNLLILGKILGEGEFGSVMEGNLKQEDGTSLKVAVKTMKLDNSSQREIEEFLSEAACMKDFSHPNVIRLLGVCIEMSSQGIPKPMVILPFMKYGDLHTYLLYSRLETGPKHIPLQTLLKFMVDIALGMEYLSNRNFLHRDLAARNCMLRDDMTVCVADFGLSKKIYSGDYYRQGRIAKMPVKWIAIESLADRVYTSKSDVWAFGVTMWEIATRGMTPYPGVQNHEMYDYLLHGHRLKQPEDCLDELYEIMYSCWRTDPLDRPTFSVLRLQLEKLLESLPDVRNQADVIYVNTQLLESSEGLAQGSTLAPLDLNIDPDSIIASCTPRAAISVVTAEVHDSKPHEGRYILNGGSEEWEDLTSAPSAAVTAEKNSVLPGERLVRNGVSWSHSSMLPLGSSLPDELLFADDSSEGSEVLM
# Chain of UniProt P30291 (whole entry, looked up): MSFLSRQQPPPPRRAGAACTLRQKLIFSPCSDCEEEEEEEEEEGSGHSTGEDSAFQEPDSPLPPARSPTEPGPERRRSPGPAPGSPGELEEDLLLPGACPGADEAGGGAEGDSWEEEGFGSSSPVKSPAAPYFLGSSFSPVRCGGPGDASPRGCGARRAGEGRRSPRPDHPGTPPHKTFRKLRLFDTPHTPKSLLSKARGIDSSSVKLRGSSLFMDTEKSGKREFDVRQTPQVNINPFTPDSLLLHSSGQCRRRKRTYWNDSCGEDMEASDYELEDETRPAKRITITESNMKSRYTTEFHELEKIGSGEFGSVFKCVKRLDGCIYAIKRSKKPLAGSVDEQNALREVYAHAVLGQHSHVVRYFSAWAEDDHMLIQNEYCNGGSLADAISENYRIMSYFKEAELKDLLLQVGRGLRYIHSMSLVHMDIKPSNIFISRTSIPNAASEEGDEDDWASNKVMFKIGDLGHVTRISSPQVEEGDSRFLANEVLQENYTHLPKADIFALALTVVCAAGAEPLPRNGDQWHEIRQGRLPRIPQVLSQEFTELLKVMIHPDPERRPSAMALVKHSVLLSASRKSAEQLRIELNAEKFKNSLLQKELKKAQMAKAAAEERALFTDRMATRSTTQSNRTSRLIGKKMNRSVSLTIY
# Chain of UniProt Q96PY6 (whole entry, looked up): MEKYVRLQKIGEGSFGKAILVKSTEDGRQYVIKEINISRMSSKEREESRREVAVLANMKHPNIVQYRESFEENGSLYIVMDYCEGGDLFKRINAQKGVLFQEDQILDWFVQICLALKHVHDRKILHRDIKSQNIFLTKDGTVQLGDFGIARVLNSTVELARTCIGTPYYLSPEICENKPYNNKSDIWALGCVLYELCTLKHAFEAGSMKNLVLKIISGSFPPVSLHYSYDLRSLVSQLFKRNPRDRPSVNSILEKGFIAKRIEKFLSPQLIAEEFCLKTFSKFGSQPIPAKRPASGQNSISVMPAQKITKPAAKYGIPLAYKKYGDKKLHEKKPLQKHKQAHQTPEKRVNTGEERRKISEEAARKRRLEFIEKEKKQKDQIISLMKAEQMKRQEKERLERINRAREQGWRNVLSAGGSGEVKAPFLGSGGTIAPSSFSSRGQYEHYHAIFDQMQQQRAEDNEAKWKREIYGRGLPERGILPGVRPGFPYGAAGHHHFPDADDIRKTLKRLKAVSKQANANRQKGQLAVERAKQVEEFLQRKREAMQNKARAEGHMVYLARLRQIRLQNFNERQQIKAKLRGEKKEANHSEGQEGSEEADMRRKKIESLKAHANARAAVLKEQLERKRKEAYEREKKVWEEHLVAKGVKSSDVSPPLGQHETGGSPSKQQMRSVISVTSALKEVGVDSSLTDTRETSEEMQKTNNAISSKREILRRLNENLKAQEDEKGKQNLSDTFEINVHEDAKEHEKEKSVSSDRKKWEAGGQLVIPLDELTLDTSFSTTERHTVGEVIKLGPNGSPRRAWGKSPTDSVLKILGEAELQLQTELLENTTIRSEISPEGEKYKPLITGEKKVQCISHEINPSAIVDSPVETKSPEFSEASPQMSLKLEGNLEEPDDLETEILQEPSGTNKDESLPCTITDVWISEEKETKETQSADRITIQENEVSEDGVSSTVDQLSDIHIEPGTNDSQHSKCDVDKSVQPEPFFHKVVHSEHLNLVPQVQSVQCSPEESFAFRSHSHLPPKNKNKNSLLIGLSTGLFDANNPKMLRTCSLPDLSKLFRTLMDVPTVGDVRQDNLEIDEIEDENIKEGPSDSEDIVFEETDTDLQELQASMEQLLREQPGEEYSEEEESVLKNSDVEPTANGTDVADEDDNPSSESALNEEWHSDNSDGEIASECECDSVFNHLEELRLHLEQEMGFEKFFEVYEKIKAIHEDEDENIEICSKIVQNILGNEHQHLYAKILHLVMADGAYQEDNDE
# Chain of UniProt Q9UL54 (whole entry, looked up): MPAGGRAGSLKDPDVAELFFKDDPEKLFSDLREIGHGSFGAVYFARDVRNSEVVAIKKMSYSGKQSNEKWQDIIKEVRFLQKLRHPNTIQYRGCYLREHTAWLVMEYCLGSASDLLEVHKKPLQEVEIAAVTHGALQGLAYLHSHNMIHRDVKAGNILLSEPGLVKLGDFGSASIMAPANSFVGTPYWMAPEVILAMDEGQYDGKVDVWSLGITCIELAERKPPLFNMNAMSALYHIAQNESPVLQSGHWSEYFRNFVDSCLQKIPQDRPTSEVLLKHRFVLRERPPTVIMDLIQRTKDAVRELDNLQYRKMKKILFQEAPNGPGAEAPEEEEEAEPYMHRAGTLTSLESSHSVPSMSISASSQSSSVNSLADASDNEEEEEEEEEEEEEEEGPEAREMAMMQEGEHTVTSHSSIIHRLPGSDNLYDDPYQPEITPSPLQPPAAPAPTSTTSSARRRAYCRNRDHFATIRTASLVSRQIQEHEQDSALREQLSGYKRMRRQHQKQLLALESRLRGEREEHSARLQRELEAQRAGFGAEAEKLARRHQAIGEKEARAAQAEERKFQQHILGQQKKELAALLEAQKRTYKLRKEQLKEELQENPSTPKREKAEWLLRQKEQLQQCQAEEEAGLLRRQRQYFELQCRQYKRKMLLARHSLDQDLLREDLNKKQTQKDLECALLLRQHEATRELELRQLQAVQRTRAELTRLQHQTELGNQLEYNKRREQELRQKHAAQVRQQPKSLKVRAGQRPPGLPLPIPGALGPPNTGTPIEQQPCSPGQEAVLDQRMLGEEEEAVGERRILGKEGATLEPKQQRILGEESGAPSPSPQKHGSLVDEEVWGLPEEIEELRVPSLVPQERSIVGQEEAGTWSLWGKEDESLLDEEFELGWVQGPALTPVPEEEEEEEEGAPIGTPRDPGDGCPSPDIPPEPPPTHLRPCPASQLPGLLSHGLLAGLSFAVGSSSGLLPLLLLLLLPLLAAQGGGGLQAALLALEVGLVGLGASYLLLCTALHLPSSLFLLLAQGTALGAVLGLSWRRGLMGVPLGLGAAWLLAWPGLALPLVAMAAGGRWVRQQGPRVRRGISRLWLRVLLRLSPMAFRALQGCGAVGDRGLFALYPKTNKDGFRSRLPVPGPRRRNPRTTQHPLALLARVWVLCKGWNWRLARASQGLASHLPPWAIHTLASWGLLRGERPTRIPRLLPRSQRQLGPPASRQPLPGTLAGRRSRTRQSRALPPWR
# Chain of UniProt P49137 (whole entry, looked up): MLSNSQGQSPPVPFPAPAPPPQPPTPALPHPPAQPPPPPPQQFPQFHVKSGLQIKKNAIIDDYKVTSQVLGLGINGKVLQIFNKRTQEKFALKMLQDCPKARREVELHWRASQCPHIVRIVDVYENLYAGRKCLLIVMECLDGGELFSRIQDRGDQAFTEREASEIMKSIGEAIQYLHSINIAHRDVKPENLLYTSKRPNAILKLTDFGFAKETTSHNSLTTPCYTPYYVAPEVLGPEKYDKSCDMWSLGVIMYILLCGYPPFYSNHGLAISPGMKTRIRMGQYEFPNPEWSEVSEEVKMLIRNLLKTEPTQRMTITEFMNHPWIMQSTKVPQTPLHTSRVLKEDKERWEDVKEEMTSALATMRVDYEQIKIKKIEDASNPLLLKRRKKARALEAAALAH
# Chain of UniProt P78368 (whole entry, looked up): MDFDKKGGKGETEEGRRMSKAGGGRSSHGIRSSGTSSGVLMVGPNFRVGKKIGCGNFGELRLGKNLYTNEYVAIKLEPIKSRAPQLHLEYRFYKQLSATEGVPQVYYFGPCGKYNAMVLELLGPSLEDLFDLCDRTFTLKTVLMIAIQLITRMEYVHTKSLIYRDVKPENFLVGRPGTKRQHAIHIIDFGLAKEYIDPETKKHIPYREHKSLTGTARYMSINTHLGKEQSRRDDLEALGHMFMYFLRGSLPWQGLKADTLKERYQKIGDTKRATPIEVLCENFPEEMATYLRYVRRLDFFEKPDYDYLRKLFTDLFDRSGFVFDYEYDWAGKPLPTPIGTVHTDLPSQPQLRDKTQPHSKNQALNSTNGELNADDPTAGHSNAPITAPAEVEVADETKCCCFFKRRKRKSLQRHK

# Study 1 — observed: β-arrestin recruitment; mode: agonist; method: PRESTO-Tango; tested at: 10 µM; baseline: untreated
# Compound: N=C(N)NC(=O)c1cnn(-c2cccc3ncccc23)c1C1CC1
target,fold over basal
"CYSLTR1 (Homo sapiens, UniProt Q9Y271)",1.03
"MC5R (Homo sapiens, UniProt P33032)",0.75
"AGTR2 (Homo sapiens, UniProt P50052)",1.59
"ADRB3 (Homo sapiens, UniProt P13945)",1.67
"CCR6 (Homo sapiens, UniProt P51684)",1.05

# Study 2 — observed: enzyme activity; mode: inhibitor; tested at: 0.5 µM; baseline: control
# SMILES: O=c1c(-c2ccc(F)cc2)c(-c2ccncc2)[nH]n1-c1ccc(Cl)cc1
target,remaining activity [%]
"EPHA3 (Homo sapiens, UniProt P29320)",84.4
"LCK (Homo sapiens, UniProt P06239)",101
"WEE1 (Homo sapiens, UniProt P30291)",81.6
"CSNK1G2 (Homo sapiens, UniProt P78368)",93.8
"FRK (Homo sapiens, UniProt P42685)",78.5
"RPS6KA2 (Homo sapiens, UniProt Q15349)",91.8
"FGFR3 (Homo sapiens, UniProt P22607)",88.1
"MAPK3 (Homo sapiens, UniProt P27361)",103
"JAK3 (Homo sapiens, UniProt P52333)",106
"FGFR1 (Homo sapiens, UniProt P11362)",93.7
"ULK3 (Homo sapiens, UniProt Q6PHR2)",94.3
"TBK1 (Homo sapiens, UniProt Q9UHD2)",112
"MERTK (Homo sapiens, UniProt Q12866)",82.7
"NEK1 (Homo sapiens, UniProt Q96PY6)",78.7
"MAP3K5 (Homo sapiens, UniProt Q99683)",115
"MAP3K14 (Homo sapiens, UniProt Q99558)",102
"MST1R (Homo sapiens, UniProt Q04912)",95
"GSK3B (Homo sapiens, UniProt P49841)",91.6
"MAP2K2 (Homo sapiens, UniProt P36507)",82.5
"ACVR1B (Homo sapiens, UniProt P36896)",123
"CSNK1G3 (Homo sapiens, UniProt Q9Y6M4)",102
"TAOK2 (Homo sapiens, UniProt Q9UL54)",101
"NEK6 (Homo sapiens, UniProt Q9HC98)",106
"MAPKAPK2 (Homo sapiens, UniProt P49137)",98.5

# Study 3 — observed: cell-free assay; method: competition with immobilised ligand; tested at: 1 µM
# Compound: O=C(Nc1cccnn1)N1CC(C/C=C/c2cncc(Oc3ccc(C(F)(F)F)cn3)n2)C1
target,remaining binding [%]
"MAP3K1 (Homo sapiens, UniProt Q13233)",66
"CHUK (Homo sapiens, UniProt O15111)",69
"CSNK2A2 (Homo sapiens, UniProt P19784)",100
"MARK4 (Homo sapiens, UniProt Q96L34)",100
"WEE1 (Homo sapiens, UniProt P30291)",100
"Receptor-type tyrosine-protein kinase FLT3, autoinhibited (FLT3, Homo sapiens, UniProt P36888)",86

# Study 4 — observed: kinase activity; mode: inhibitor; tested at: 1 µM
# SMILES: CC(C)S(=O)(=O)c1ccc2nccc(Nc3ccc4sc(C5CCCC5)nc4c3)c2c1.Cl
target,remaining activity [%]
"PRKCH (Homo sapiens, UniProt P24723)",84
"CDKL4 (Homo sapiens, UniProt Q5MAI5)",83
"MERTK (Homo sapiens, UniProt Q12866)",98
"NTRK3 (Homo sapiens, UniProt Q16288)",91
"MAPK14 (Homo sapiens, UniProt Q16539)",88

# Study 5 — observed: cell-free assay; tested at: 1 µM
# Structure (SMILES): C[C@H]1CC[C@H](n2c3cnccc3c3cnc(Nc4ccc5c(n4)CCN(C(=O)CO)C5)nc32)CC1
target,remaining signal [%]
"PIK3CA (Homo sapiens, UniProt P42336, H1047Y)",100
"MAPKAPK5 (Homo sapiens, UniProt Q8IW41)",100
"MAST1 (Homo sapiens, UniProt Q9Y2H9)",73
"CSNK2A1 (Homo sapiens, UniProt P68400)",1
"CRK2 (Plasmodium falciparum, UniProt P61075)",41
"AKT1 (Homo sapiens, UniProt P31749)",100

# Study 6 — cell line: HaCaT; tested at: 100 µM; time: 36 h
Structure (SMILES),viability [%]
Cc1cc(O)cc(C)c1Cl,73.7
N[C@@H](Cc1c[nH]c2ccccc12)C(=O)O,91.3
O=C(NC[C@H]1CN(c2ccc(N3CCOCC3=O)cc2)C(=O)O1)c1ccc(Cl)s1,116
NC(=O)CCCCC1CCSS1 (stereo not drawn),108
O=c1[nH]cc(F)c(=O)[nH]1,46

# A few entries again (study 5):
target,remaining signal [%]
"MAPKAPK5 (Homo sapiens, UniProt Q8IW41)",100
"MAST1 (Homo sapiens, UniProt Q9Y2H9)",73
"CRK2 (Plasmodium falciparum, UniProt P61075)",41
"CSNK2A1 (Homo sapiens, UniProt P68400)",1
"PIK3CA (Homo sapiens, UniProt P42336, H1047Y)",100
